Measured values from different studies.
Every numbered part comes from another study and shows a few of its results, in no order. Positions count from the first letter of the parent shown.

Study 1
Target: tungstate, free oxyanion
Method: microfluidic competitive inhibition
Sample: in vitro, cell-free expressed
Tested at: not given
Notes: derived from inhibition constants, unchanged parent 2230 nM
Direction: lower = stronger binding
Starting sequence: PafA, mature enzyme, eGFP fusion (Elizabethkingia meningoseptica, UniProt Q9KJX5); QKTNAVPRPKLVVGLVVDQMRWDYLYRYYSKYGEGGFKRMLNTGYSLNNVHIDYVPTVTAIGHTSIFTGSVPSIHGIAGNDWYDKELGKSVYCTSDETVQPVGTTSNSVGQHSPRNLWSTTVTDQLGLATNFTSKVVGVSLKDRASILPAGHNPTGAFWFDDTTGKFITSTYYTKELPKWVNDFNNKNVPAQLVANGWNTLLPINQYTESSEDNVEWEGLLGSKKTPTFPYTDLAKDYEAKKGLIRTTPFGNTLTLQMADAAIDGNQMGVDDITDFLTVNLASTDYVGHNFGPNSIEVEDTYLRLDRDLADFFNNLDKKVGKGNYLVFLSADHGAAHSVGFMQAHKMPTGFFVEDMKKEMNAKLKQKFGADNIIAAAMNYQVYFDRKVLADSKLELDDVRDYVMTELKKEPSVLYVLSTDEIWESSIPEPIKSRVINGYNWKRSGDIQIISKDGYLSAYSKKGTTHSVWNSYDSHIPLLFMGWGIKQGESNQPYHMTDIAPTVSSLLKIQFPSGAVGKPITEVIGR
| Variant | oxyanion analog dissociation constant [nM] |
| --- | --- |
| M356G | 2280 |
| Y472V | 2670 |
| N188V | 1770 |
| Y402V | 2180 |
| K242V | 2110 |
| N470G | 1620 |
| D498V | 1530 |
| N294V | 2460 |

Study 2
Target: UDP-N-acetylglucosamine--peptide N-acetylglucosaminyltransferase 110 kDa subunit (OGT, Homo sapiens, UniProt O15294)
UniProt O15294, sequence (whole entry, looked up): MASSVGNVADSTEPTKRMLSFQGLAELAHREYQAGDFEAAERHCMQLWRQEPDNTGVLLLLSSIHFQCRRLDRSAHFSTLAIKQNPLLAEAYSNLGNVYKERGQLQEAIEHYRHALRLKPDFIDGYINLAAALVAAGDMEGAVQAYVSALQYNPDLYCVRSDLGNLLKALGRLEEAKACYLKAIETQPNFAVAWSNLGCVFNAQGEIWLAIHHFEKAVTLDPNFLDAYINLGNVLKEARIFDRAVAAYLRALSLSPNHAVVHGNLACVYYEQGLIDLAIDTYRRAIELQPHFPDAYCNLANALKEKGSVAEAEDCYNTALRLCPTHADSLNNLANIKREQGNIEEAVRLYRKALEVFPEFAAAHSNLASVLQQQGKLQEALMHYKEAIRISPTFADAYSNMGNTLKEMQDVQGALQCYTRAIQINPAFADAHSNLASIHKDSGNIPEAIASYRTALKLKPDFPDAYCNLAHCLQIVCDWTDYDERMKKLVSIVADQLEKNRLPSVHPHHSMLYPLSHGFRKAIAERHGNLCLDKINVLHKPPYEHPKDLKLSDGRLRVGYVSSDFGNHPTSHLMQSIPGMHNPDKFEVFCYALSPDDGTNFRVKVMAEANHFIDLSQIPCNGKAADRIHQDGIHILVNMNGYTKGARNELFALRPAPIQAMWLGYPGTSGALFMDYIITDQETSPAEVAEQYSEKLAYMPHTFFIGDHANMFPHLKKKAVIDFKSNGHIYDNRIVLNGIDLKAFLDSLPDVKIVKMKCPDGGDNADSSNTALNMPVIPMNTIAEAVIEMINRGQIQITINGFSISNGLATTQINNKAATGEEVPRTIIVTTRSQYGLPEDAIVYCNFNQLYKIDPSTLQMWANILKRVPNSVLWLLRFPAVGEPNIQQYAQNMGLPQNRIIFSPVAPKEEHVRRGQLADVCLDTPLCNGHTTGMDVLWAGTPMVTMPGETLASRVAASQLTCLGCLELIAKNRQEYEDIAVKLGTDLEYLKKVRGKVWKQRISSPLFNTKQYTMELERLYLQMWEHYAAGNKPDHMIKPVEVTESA
Observed: binding
Method: phage display NGS
Molecule type: peptide
Tested at: concentration not given
Notes: normalized abundance
Reference: input library
| Sequence | enrichment fold change |
| --- | --- |
| GHFPVLHNTYQHHHQ | 8.58 |
| TMKHRPATAWGIHHH | 17.5 |
| KQVAVSVPPKYQIYV | 5.71 |
| AQNYLPVYQIVWRDN | 11.4 |
| HSQHAIHHTIDNHA | 11.3 |
| TMQHQTHMVNHTWWH | 6.48 |
| HSDHSHQNHHPPHIR | 8.54 |
| YLIEPPKRHHHYHN | 9.45 |

Other studies, line by line
| Compound | tested on | assay | test system | conditions | measurement | result |
| --- | --- | --- | --- | --- | --- | --- |
| Cc1c(N)nc([C@H](CC(N)=O)NC[C@H](N)C(N)=O)nc1C(=O)N[C@H](C(=O)N[C@H](C)[C@@H](O)[C@H](C)C(=O)N[C@H](C(=O)NCCc1nc(-c2nc(C(=O)NCCC[S+](C)C)cs2)cs1)[C@@H](C)O)[C@@H](O[C@@H]1O[C@@H](CO)[C@@H](O)[C@H](O)[C@@H]1O[C@H]1O[C@H](CO)[C@@H](O)[C@H](OC(N)=O)[C@@H]1O)c1c[nH]cn1 | A-375 |  |  | 100 µM, 18 h | viability | 31.2% |
| O=C1CCC(N2Cc3c(ccc4c3OCC43CCN(Cc4ccccc4)CC3)C2=O)C(=O)N1 (centres unmarked) |  |  | male Sprague-Dawley rat, plasma | oral, 3 mg/kg | bioavailability | 49.2% |
| CCO[C@H]1O[C@@H]2O[C@@]3(C)CC[C@H]4[C@H](C)CC[C@@H]([C@H]1C)[C@@]24OO3 | A-375 |  |  | 100 µM, 18 h | viability | 45.8% |
| CCC(=O)N[C@H]1CC[C@@H](C(=O)N(C)c2ccc(-c3nc4ccccc4o3)cc2)C1 | Cyclin-dependent kinase 2 homolog (CRK2, Plasmodium falciparum, UniProt P61075) | cell-free assay, competition with immobilised ligand |  | 1 µM | remaining binding | 80% |

Excerpt of the above (study 1):
| Variant | oxyanion analog dissociation constant [nM] |
| --- | --- |
| K242V | 2110 |
